{"data": "Results gathered from unrelated publications", "note": "Each numbered part is a random draw from the data of one study; scales do not carry over between parts.", "chain of UniProt P07947 (whole entry, looked up)": "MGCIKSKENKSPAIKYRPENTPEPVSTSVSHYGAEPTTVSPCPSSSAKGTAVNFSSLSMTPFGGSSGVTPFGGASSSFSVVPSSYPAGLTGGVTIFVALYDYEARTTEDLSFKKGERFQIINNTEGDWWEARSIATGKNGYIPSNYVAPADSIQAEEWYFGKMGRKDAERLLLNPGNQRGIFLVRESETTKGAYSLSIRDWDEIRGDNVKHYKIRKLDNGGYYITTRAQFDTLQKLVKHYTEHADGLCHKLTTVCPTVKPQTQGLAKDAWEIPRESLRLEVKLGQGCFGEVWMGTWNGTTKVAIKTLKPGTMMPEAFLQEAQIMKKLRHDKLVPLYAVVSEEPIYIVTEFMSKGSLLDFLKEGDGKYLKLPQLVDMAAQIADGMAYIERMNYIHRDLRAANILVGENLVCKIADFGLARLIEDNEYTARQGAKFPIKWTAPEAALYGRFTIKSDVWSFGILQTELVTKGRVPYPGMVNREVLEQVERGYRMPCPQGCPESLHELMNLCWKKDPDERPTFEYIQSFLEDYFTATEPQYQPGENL", "chain of UniProt P45985 (whole entry, looked up)": "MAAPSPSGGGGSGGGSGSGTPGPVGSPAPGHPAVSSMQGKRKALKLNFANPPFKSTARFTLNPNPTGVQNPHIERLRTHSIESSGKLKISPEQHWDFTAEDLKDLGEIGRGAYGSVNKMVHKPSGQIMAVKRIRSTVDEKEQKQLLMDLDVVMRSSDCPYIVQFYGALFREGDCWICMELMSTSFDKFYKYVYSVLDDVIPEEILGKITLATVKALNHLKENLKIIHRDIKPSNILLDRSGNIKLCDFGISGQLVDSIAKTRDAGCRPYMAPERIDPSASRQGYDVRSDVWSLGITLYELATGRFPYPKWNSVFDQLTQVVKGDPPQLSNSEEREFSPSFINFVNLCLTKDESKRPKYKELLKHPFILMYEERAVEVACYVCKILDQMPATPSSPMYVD", "chain of UniProt Q13153 (whole entry, looked up)": "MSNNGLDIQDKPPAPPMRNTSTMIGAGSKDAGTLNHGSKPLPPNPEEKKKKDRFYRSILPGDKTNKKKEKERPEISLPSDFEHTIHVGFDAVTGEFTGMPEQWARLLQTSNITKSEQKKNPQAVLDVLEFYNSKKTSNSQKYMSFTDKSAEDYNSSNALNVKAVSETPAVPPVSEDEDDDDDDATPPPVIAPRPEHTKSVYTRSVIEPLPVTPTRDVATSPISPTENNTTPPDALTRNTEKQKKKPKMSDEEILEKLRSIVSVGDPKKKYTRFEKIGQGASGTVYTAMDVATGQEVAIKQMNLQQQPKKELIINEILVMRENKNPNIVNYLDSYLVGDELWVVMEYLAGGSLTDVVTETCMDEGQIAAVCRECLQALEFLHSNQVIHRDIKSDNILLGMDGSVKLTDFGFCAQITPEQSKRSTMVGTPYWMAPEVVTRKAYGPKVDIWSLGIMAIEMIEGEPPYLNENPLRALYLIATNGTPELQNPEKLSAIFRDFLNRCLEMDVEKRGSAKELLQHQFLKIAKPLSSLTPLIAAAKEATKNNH"}
{"data": "Study 1", "target": "panel of 300 human kinases", "tested at": "0.5 µM", "reading": "higher = more selective"}
{"Structure (SMILES)": "c1cc(-c2cnn3cc(-c4ccc(OCCN5CCCCC5)cc4)cnc23)ccn1", "Gini score": 0.56}
{"Structure (SMILES)": "CC[C@H](CO)Nc1nc(NCc2ccccc2)c2ncn(C(C)C)c2n1", "Gini score": 0.7}
{"Structure (SMILES)": "O=C(Nc1cccc(Nc2cc(Nc3cccc(C(F)(F)F)c3)ncn2)c1)C1CC1", "Gini score": 0.78}
{"Structure (SMILES)": "OCC(O)CCON=C1C(c2c(O)[nH]c3ccccc23)=Nc2ccccc21 (stereo not shown)", "Gini score": 0.48}
{"data": "Study 2", "SMILES": "CCCOc1ccc([C@H]2[C@H](C(=O)O)[C@@H](c3ccc4c(c3)OCO4)CN2CC(=O)Nc2c(CC)cccc2CC)cc1", "observed": "cell-free assay", "method": "competition with immobilised ligand", "tested at": "1 µM"}
{"target": "YES1 (Homo sapiens, UniProt P07947)", "remaining binding": "99%"}
{"target": "PIM3 (Homo sapiens, UniProt Q86V86)", "remaining binding": "88%"}
{"target": "MAP2K4 (Homo sapiens, UniProt P45985)", "remaining binding": "80%"}
{"target": "PAK1 (Homo sapiens, UniProt Q13153)", "remaining binding": "89%"}
{"data": "Further values, each from its own experiment"}
{"Structure (SMILES)": "O=C1Nc2cc(Br)ccc2/C1=C1/Nc2ccccc2/C1=N\\O", "target or system": "HH", "assay": "CCK-8", "setting": "2 µM, 48 h", "scale": "reference: untreated", "measurement": "viability", "result": "64.3%"}
{"Structure (SMILES)": "CCC[C@H]1NC(=O)CSC[C@@H](C(=O)OCC)N(C)C(=O)[C@H](CC(C)C)NC(=O)[C@@H](C)N(C)C(=O)[C@H](CC(C)C)NC(=O)[C@H](C)N(C)C(=O)[C@@H]2CCCN2C(=O)[C@H](CC(C)C)NC(=O)CN(CCC)C1=O", "system": "hydrocarbon/water", "measurement": "logD", "result": 0.656}
